Experimental data collected from several papers.
Each numbered part is a random draw from the data of one study; scales do not carry over between parts. Positions count from the first letter of the parent shown.

Sample 1
Target: RING finger protein unkempt homolog, zinc fingers 1-6, SBP tag (UNK, Homo sapiens, UniProt Q9C0B0, residues 30-357)
UniProt Q9C0B0, sequence (30-357, looked up): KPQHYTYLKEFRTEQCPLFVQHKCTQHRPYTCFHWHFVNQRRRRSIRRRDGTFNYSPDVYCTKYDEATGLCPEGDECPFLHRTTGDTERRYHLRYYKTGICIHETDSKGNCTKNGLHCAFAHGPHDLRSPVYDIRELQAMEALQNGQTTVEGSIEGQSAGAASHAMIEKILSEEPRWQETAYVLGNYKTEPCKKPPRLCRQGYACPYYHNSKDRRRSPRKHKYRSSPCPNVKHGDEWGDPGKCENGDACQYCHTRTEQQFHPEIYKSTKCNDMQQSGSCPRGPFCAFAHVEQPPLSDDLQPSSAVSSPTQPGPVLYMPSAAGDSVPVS
Technique: RNA Bind-n-Seq
Form: RNA
Medium: in vitro
Concentration: 100 nM
Setting: RNA with constant flanks, vertebrate orthologous sites, ends assumed
Reference: input RNA pool
Direction: higher = stronger binding
All sequences stand within: GGGAGUUCUACAGUCCGACGAUC … CAACAGAGGAUUGAGCAUCA
Oligonucleotide	bound/input enrichment
UCAUUGUACUGCAAAAAUCAUCCUCGUUCUAAAUUAGCCACAGUGAUAACUAGUCUGCAGUAGUAGAAGCAUUUACCUUUUAAAUUACCUGCUUUGUCUGAUACCUGAAACACAUCAAAA	1.05 ratio
CAACGCCAUGGUGGAGGGCUCCGAGCUCAAAAAGGUCCGCUCCAACUCGAGGAUUUACCACCGGUAUUUCUUGCUGGAUGCCGACAUGCAGAGCCUGAGGUGGGAACCAUCCAAGAAGGA	0.189 ratio
UGCAUUAUUUGACCAGAGUUGAGGUGACAGAGUUUGAAGACAUCAAAUCAGGUUACAGAAUAGAUUUUUAUUUUGACGAGAAUCCAUACUUUGAAAAUAAAGUUCUCUCCAAAGAGUUUC	0.956 ratio
AAGGAGUAGAAGUUCAAGAUCAUCCUCAGCUAUAUACCAAGUUUGAGACCAGUUUGGGCUGCAUGAGACUAAAAUGUGGUGGCAUGUGUAGAUCAUUGAAGCUCAAAAACAAGGUCUGGG	0.524 ratio
UAAUCUCUAAGCCAGGAACACUUGUAAAAUGCUAUUUAUUUGUGUCUGUAAGUUUGUACAUAAUACUAUCAACCUCAUAUUGUUCUUGAAUUAUUUGGGGGGGGGGGUGAGUUUGAGUUU	0.926 ratio
AUUAGGUCAUGACCCGUAUAGAUUAGGUCAUGAUGCUUACAGGUUAGGACAGGACCCUUACAGAUUAGGCCAUGAUCCUUAUAGACUAACUCCUGAUCCCUAUAGGAUGUCACCUAGGCC	0.259 ratio
ACACUUACAUUGUGGCAAAUAGUCAACAUGGAAGUAGACCGGCUCUGCUGAUUUGAAAUUUAGAUUUUUUAAUUAUGUACUGGGGACAGGUUUUUGUCGCUUUACAUUGCUUCCUAGUUU	3.31 ratio
AGCUUCUGAUGUUUGGGAAGUCUAUAUGAUUUAUAAUAUUUUUUGUUUGUAAUAUAAUUUCAUAAAAUUCUUGACAACUGAUGUGCUGACUUUUCUUAUGUUAGGAGGAGUAGGGUCAUA	0.484 ratio
AAAAGAACUCUUGCAGUUUUAGAUGUUAUAAAAAAUAUAUAUCUGAAUUGUAAGAGUUGUUAGCACAGGUUUUUUUUUUUUGUUUUUUUUUAAGCACUUGUUUUGGGUACAAGGCAUUUC	0.762 ratio
CCGCCAACUCCCUGAUCGGCCGGGCGGCGCACAUCGCCGUCCUCGACUCCGAGAUUUUCCUGGAGAAGUUCUUCCUGGUGGCCGGACUGAAGUUCUUUCAGUAGAACCAGAAGAAAGAGA	0.16 ratio
GCACAGCAACUCUUACAGUCUUAGGUGUUACCAAGAACAGAUCUCAACUGUAAGAGUUGUCAGUACAGGUUUUCUUUUCCUUUUGUUUUUGUUAUUGUUUUUUUUUUUUUUUUUUUUUUU	3.31 ratio

Sample 2
Target: TAR DNA-binding protein 43, full length, His tag (TARDBP, Homo sapiens, UniProt Q13148, residues 1-414)
Technique: RNA Bind-n-Seq
Form: RNA
Medium: in vitro
Concentration: 20 nM
Setting: 6-mer, flanks averaged, single round
With: 150 mM LiCl
Reference: input library
Direction: higher = stronger binding
Oligonucleotide	6-mer enrichment (R)
GAAGGC	0.932
GUACUU	0.895
UUUCCG	0.964
ACGGGA	0.93
AUUGUC	0.925
AAUCCG	0.795
UGCCCA	1
UUUAAG	1
CGGCUU	0.923
GUCCUA	0.873
GUCCCC	1.22
UUUUAC	1.13
GGCGCG	1.16
UAACAG	0.854
CUCCCA	1.08
UAUGCA	1.02
GGGAAU	1.07
ACCCGG	0.939
CCCCUA	1.18
UUGACA	1.02
CCCUAA	0.976
UAGCCA	0.889
UGUCAG	0.971
UGUCCG	0.962
AAUAGC	0.881

Sample 3
Target: CCND3, cyclin fold, Cln2 fusion (human)
Technique: yeast growth competition, sequencing
Medium: yeast
Setting: strong parent motif
Reference: not given
Direction: higher = stronger binding
Starting sequence: INSM1 docking peptide (human); PKAIRKLHFEDEV; partner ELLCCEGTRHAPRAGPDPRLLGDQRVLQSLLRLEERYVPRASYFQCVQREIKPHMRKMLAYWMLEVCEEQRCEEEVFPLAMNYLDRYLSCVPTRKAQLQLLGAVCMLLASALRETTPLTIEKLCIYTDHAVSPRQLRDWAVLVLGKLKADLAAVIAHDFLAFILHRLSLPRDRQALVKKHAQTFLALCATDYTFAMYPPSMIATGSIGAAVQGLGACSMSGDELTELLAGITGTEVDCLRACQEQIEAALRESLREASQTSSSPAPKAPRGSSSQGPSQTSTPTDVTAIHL
Substitution	normalised enrichment score
K2G	1.75
K2L	0.681
I4A	2.43
R5F	-0.0774
E10K	0.304
E10H	0.65
D11W	0.447
R5D	0.0376
K2F	0.722
A3L	-0.166
L7M	0.308
I4G	0.304
K6C	0.58
A3S	0.319
R5N	-0.106
K2E	-0.0117
A3V	0.615
H8W	0.703
H8E	1.47
F9L	0.18
R5L	0.69
D11G	0.183
K2N	1.23
F9E	0.178
E12I	0.88

Sample 4
Target: Protein max, full length (MAX, Homo sapiens, UniProt P61244-2, residues 1-151)
Technique: protein-binding microarray
Form: double-stranded DNA, one strand shown
Medium: in vitro
Concentration: not given
Setting: k-mer, scored over probes, only values ≥0.25
Direction: higher = stronger binding
Oligonucleotide	E-score
ATCAGCAT	0.259
CATGGCGG	0.372
CGGGCACA	0.263
ACACGTTA	0.386
ACGCTGTG	0.252
CGCGGCAC	0.297
GGTGTGCA	0.29
ATCACCTG	0.338
AACCACGA	0.305
ACGAGACG	0.258
GCACCCAC	0.313

Sample 5
Target: ABI1, truncated, D143A, DHFR fusion (Arabidopsis thaliana, UniProt P49597)
Technique: DHFR PCA, dose-response
Medium: yeast
Setting: Hill fit, not affinity
With: (+)-ABA, dose series
Direction: lower = more sensitive
Starting sequence: PYL1, truncated, DHFR fusion (Arabidopsis thaliana, UniProt Q8VZS8); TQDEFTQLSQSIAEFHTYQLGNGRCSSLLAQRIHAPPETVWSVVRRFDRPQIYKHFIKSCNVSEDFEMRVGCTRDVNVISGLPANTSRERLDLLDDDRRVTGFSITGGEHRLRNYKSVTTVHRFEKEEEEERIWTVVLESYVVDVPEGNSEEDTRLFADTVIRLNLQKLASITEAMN
Substitution	ABA EC50 [µM]
F103Y	49.3
S9R	6.49
D92V	60.7
K126A	1.96
T160F	2.04
N61T	2.72

Sample 6
Target: Ras GTPase-activating protein-binding protein 1, full length (G3BP1, Homo sapiens, UniProt Q13283)
UniProt Q13283, sequence (whole entry, looked up): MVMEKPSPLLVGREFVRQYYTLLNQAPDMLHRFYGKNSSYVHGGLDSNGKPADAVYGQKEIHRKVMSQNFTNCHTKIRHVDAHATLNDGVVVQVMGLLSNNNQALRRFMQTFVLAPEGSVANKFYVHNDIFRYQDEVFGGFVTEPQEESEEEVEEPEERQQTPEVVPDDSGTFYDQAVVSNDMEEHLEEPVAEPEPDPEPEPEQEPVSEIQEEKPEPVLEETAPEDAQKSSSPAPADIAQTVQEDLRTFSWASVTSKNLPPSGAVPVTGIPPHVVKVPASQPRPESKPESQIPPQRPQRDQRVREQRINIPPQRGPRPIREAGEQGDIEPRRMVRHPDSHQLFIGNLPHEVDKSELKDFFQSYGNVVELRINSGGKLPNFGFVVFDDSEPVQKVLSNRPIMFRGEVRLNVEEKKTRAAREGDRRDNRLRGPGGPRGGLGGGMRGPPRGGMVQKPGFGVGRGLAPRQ
Technique: RNA Bind-n-Seq
Form: RNA
Medium: in vitro
Concentration: 200 nM
Setting: whole 134-nt RNA, ends assumed
With: 150 mM KCl
Reference: input library
Direction: higher = stronger binding
All sequences stand within: GGGAGUUCUACAGUCCGACGAUC … UGGAAUUCUCGGGUGUCAAGG
Oligonucleotide	log2 enrichment
ACCAUGCAGGUGGGCAUCUUUGGGAAGUGGGGCAAGGGGGGGAUAGGGAGGGGGGUAACACUUUGGGAACAGGUGGUCCCAGGUCGAUUC	1.1
GUCCUGUGCUACACAUCGUAUGUACCGAAUCGGAAAAAGGGAAAAAGGGGAAAAAGGGGAAAGUAUUAUGUUACGCCGUUCGGAUCUGCA	-0.334
AGUCACUUUUUAAUUUUAUUUAUUAUUUCUCCUCUUAGACCGCAGGAUGGAAACAAGCCCACUGAGACUAGUCAACCUCAAUCUAGCACA	0.818
CACAGACAACACGCACCCACACAGACACAGAGGGAAGGGGUUGGGAUGGGGACAGGGUGGACAGCAGGGCGGGGUAGGACCCCAGCCCCU	1.78
UGGCCCUGGUGGCAUGCGGGGAGGAAGAGGUGGCCUCGUGGAUCGUGGUGGUCCCGGUGGAAUGUUCAGAGGUGGCCGUGGUGGAGACAG	0.308
UGGAGCUACAGAUGGUGUCCUUCCUGCCAGGUGUGUGUGGAGGCCAGUAUGAAGCUGAAAAAGCAGGUGACAGUGUGUGGGGCUGCCAUC	-0.199
AAGUCCUGUGCUACACAUCGUAUGUACCGAAUCGGAAAAAGGAAAAAGGAAAAAGGAAAGUAUUAUGUUACGCCGUUCGGAUCUGCACUU	-1.23
CACAGACAACACGCACCCACACAGACACAGAGGGAAGGGGUAGGGAUGGGGACAGGGUGCACAGCAGGGCGGGGUAGGACCCCAGCCCCU	1.78
GUCCUGUGCUACACAUCGUAUGUACCGAAUCGGGGUUUUUUUGGGGAGGGGUUUGGGGAAAGUAUUAUGUUACGCCGUUCGGAUCUGCAC	0.24
UGGGAGGUGGAUUUUGUUUAUUUUUUUAGCUCAUUUCCAGGGGUGGGAAUUUUUUUUGAAUAUGUGUCAUGAAUAAAGUUGUUUUUGAAA	0.206
CUCAAGUCCUGUGCUACACAUCGUAUGUACCGAAUCGGUGGUGGAAAAAAAGGAAAGUAUUAUGUUACGCCGUUCGGAUCUGCACUUCCA	-0.313
UUUAGUGACUUUGGAUGAAGUAACUGAAGAGGAUGAAGACUCUCUGGCGGAUUUUAACAACCUUAAAGAAGAGCUUAAUUUUGUUACUGU	-1.16
GCAGGAAGUAAAAACAAAUGGAAAUGCUUCGGAUAGUGGCAGGGGUGGGGGUUGCUAAGGAGAGGGUGGGAUGGGAGUGGGUAAAGAGUU	0.877
GCAGGAAGUAAAAACAAAUGGAAAUGCUUCGGAUAGUGGCAGGGGUGGGGGUUGCUAAGGCAAGGGUGGGAUGGGAGUGGGUAAAGAGUU	0.748

Sample 7
Target: PABPC1L2, full length, GST fusion (mouse, UniProt A0ABA7IW68)
Technique: RNAcompete
Form: RNA
Medium: in vitro
Concentration: 20 nM
Setting: 7-mer, probes averaged, single round
Reference: mean of 7-mers
Direction: higher = stronger binding
Construct (chain): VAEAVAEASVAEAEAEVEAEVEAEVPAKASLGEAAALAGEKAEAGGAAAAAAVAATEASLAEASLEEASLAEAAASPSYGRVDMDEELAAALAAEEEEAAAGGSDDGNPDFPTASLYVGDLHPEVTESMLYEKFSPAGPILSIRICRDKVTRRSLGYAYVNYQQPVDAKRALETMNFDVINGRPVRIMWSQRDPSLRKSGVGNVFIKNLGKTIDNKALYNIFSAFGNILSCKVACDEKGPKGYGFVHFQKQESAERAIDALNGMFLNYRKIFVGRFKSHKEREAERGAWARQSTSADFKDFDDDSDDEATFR
Oligonucleotide	7-mer Z-score
AACCGUA	-0.0754
CUGCCUA	-0.277
CGACUAG	-0.175
AGACUCA	-0.208
GCCUUAC	-0.34
GAGUUCU	-0.421
AAUUCGG	0.218
UGUCGGG	-0.104
CAGUUCA	-0.238
CGCUUCU	-0.365
AAGAGUG	0.166
UAUCGAU	-0.139
AGUCGGG	-0.0591
AAGACGG	0.423
CGCGACG	-0.146
CCUGGAG	-0.0554
GAAUAGC	-0.233
GUCUAAU	-0.293
UAGCAUC	-0.148
AGUUUAC	-0.295
AUAAGAC	0.361
AUUGGCC	-0.168
CCGGGAC	-0.079
CUUUUGC	-0.344
CCACCUG	-0.356

For quick reference, copied from above (sample 3):
Substitution	normalised enrichment score
A3S	0.319
I4G	0.304
R5N	-0.106
R5D	0.0376
R5L	0.69
E12I	0.88
R5F	-0.0774
H8E	1.47
